Results from different studies.
Compare with care: the assays were run in different laboratories. Numbers after ± are the reported error.
Cell line: HepG2

| Structure (SMILES) | test | conditions | IC50 |
| --- | --- | --- | --- |
| COC(=O)CNc1cc(C[S+]([O-])c2ccc3cc(Br)ccc3c2)ccc1OC (stereo not drawn) | cell growth or viability, MTS | 48 h | 7.09 µM |
| COc1cc(OC)c(C(C)=O)c(OC)c1 | cell growth or viability, MTT | 48 h | 40.9 µM |
| CC(=O)O[C@H]1CC[C@]2(C)[C@H]3CC=C4[C@@H]5CC(C)(C)CC[C@]5(C(=O)O)CC[C@@]4(C)[C@]3(C)CC[C@H]2C1(C)C | cell growth or viability, SRB | – | 32.5 µM |
| Oc1ccc2c(c1)[O][Pt-2]1([Cl])[N+](=C2)c2ccccc2[NH+]1c1ccccc1 (stereo not drawn) | cell viability, MTT | 48 h | 63.9 ± 6.44 µM |
| Cc1c(C(=O)NNC(=O)Nc2ccc(Cl)cc2)nnn1Cc1nc2ccccc2[nH]1 | cell growth or viability, MTT | 48 h | 53.6 µM |
| N#CC[C@H](C1CCCC1)n1cc(-c2ncnc3[nH]ccc23)cn1 | cell growth or viability, MTT | 72 h | > 25 µM |
| COCCOCCSc1nc(N)c2c(F)c(C#N)c(F)c(Cl)c2n1 | cell growth or viability, MTT | 96 h | 14.9 µM |
| C[S+](C)([O-])[Pt-2]([Cl])([Cl])[N+](=Cc1ccc[nH]1)Cc1ccccc1 | cell growth or viability, MTT | 24 h | 0.3 µg/mL |
| C/C(=N\N=C(SCc1ccccc1)SCc1ccccc1)c1ccc(S(=O)(=O)N2CCC(C)CC2)cc1 | cell growth or viability, MTT | – | 24.4 µM |
| C=C(CO)C(=O)O[C@H]1CC(=C)[C@@H]2C[C@H](O)[C@](O)(CCl)[C@@H]2[C@H]2OC(=O)C(=C)C12 (stereo partly drawn) | cell growth or viability | – | 5 µg/mL |
| CC(=O)[O-].O.O.O.O.[Co+2].[O-]c1ccc(Br)cc1C=NCCN1CCOCC1 | cell viability, MTT | 72 h | 23.2 µg/mL |
| COc1cc(/C=C/C(=O)/C=C/c2cn(-c3ccccc3)nc2C(=O)O)cc(OC)c1O | cell growth | 72 h | > 25 µM |
| CC(=NN=c1sc(C(=O)c2ccccc2)nn1-c1ccccc1)c1ccc(S(=O)(=O)N2CCC(C)CC2)cc1 | cell growth or viability, MTT | – | 3.31 µM |
| CC(C)(C)c1cc2c(O)c(c1)Cc1cc(C(C)(C)C)cc(c1OCC(=O)NCc1cccnc1)Cc1cc(C(C)(C)C)cc(c1O)Cc1cc(C(C)(C)C)cc(c1OCC(=O)NCc1cccnc1)COC2 | cell growth or viability, MTT | 72 h | 8.8 µM |
| Cc1nc(CN(C)c2ncnc3c2cnn3CCO)cs1 | cell growth or viability, MTT | – | > 50 µM |
| [NH2][Pt]1([NH2])([Cl])([O]C(=O)C(F)(F)F)[O]C(=O)C2(CC(=O)C2)C(=O)[O]1 | cell growth or viability, MTT | – | 15 µM |
| COc1ccc(-c2nnc(-c3ccccn3)[nH]2)cc1OC | cell growth or viability, MTT | 24 h | > 100 µM |
| O=C1C(Cl)=C(Cl)C(=O)c2c(O)ccc(O)c21 | cell growth or viability, MTT | – | 8.07 µM |
| O=c1cc(-c2ccc(O)c(O)c2)oc2cc(O[C@@H]3O[C@H](CO)[C@@H](O)[C@H](O)[C@H]3O)cc(O)c12 | cell growth or viability, MTT | 24 h | 34.4 µg/mL |
| C=C(C)[C@@H]1CC[C@]2(C(=O)OCO/N=[N+](\[O-])N3CCCC3)CC[C@]3(C)[C@H](CC[C@@H]4[C@@]5(C)CC[C@H](OC(C)=O)C(C)(C)[C@@H]5CC[C@]43C)[C@@H]12 | cell growth or viability, MTT | 72 h | 4.32 µM |

| Structure (SMILES) | test | conditions | IC50 |
| --- | --- | --- | --- |
| CCOC(=O)C/C(C)=N/NC(=O)c1nc2ccccc2n(C)c1=O | cell growth or viability, MTT | 48 h | 13.8 µM |
| COc1ccc2c(c1)/C(=N/NC(N)=S)C(=O)N2CCn1cnc2c(N)ncnc21 | cell growth or viability, SRB | 72 h | 29.5 µM |
| O=C(/C=C(O)/C=C/c1cccs1)/C=C/c1cccs1 | cell growth or viability, SRB | 72 h | 66 µM |
| Clc1nc2ccccc2cc1-c1nc2cc(Br)ccc2[nH]1 | cell growth or viability, MTT | 48 h | 28.2 µM |
| C/C(=N\N=c1/[nH]c(-c2ccccc2)cs1)c1c(O)c2ccccc2oc1=O | cell growth or viability, MTT | 48 h | 47.6 µM |
| NC(=S)NNC(=O)c1cc2ccc(O)cc2oc1=O | cell growth or viability, SRB | 72 h | 5.4 µM |
| C=CCc1ccc(OC(C)=O)c(OC)c1 | MTT | 24 h | > 50 µM |
| N#Cc1cccc(-c2ccc(=O)n(Cc3cccc(-c4ncc(OCC5CCN(CC(=O)NCCOCCOCCNc6ccc7c(c6)C(=O)N(C6CCC(=O)NC6=O)C7=O)CC5)cn4)c3)n2)c1 (stereo not drawn) | cell growth or viability, CCK-8 | 72 h | 7.47 µM |
| COc1ccc2nc(Cl)c(-c3nc4cc(Br)ccc4[nH]3)cc2c1 | cell growth or viability, MTT | 48 h | 12.2 µM |
| CC(C)=C1CC[C@]2(COC(=O)c3ccccc3)[C@@H](OC(=O)c3ccccc3)/C=C(\C)CC[C@@H]3O[C@@]3(C)C[C@@H](OC(=O)c3cccnc3)[C@@H]12 | cell growth or viability, CCK-8 | 24 h | > 50 µM |
| COc1ccc(-c2c(C#N)c(N)n(-c3nnc(NC(=O)c4ccccc4)s3)c(=O)c2C#N)cc1 | cell growth or viability, MTT | 48 h | 54.6 µM |
| Cc1c(C)c(-c2ccc(-c3ccccc3)cc2)[c-](C)c1C.Cc1c(C)c(-c2ccc(-c3ccccc3)cc2)[c-](C)c1C.[Cl-].[Cl-].[Cl-].[Cl-].[Ir+3].[Ir+3] (stereo not drawn) | cell growth, MTT | 24 h | > 50 µM |
| N#Cc1cccc(-c2ccc(=O)n(Cc3cccc(-c4ncc(OCC5CCN(CCCCCCCC(=O)Nc6cccc7c6C(=O)N(C6CCC(=O)NC6=O)C7=O)CC5)cn4)c3)n2)c1 (stereo not drawn) | cell growth or viability, CCK-8 | 72 h | 20.1 µM |
| COc1ccc(C(c2c[nH]c3ccc(OC)cc23)c2c[nH]c3ccc(OC)cc23)cc1 | cell growth or viability, MTT | 24 h | 8.27 µM |
| CC(=O)OC[C@H]1O[C@@H](n2nc(-c3cc4ccccc4[nH]3)n(-c3ccccc3)c2=S)[C@H](OC(C)=O)[C@@H](OC(C)=O)[C@@H]1OC(C)=O | cell growth or viability, MTT | – | ≥ 50 µM |
| CC(=O)OC[C@]1(C)CCC[C@]2(CO)[C@@H]1CC[C@@]13C[C@@H](C[C@H](O)[C@H]12)[C@H](C)C3=O | cell growth or viability, MTT | – | > 20 µM |
| Clc1ccc2[nH]c(-c3cc4cc5c(cc4nc3Cl)OCO5)nc2c1 | cell growth or viability, MTT | 48 h | > 100 µM |
| COC(=O)[C@H](CC(C)C)NC(=O)CNC(=O)COc1ccc2c(C)cc(=O)oc2c1 | cell growth or viability, MTT | – | 72.1 µM |
| CC(=O)OC[C@@]12CCC[C@@](C)(CO)[C@H]1CC[C@@]13C[C@@H](C[C@H](O)[C@H]12)[C@H](C)C3=O | cell growth or viability, MTT | – | > 20 µM |
| Nc1ncnc2c1C(c1cccs1)C1=C(CCCC1=O)O2 (stereo not drawn) | cell growth or viability, MTT | 72 h | 39.7 µM |

| Structure (SMILES) | test | conditions | IC50 |
| --- | --- | --- | --- |
| C[C@]12CC[C@@H]3c4ccc(O)cc4CC[C@H]3[C@@H]1CC[C@@]2(O)c1cn(CC(=O)c2ccc(F)cc2)nn1 | cell growth or viability, resazurin | 72 h | 28.1 µM |
| Cc1cc(/C=C/C#N)cc(C)c1Oc1cc(Nc2ccc(C#N)cn2)nc2cnccc12 | – | 48 h | 9.6 ± 6.5 µM |
| O=C(/C=C/C=C/c1ccccc1)c1ccccc1OCc1cc(F)cc(F)c1 | cell growth or viability, MTT | 48 h | 30.8 µM |
| O=C(CCl)Sc1nnc(-c2n[nH]c(=O)c3ccccc23)o1 | cell growth or viability, MTT | 48 h | 6.9 µM |
| CCOc1cccc2c1[O][Pt-2]1([Cl])[N+](=C2)CC[NH+]1c1ccccc1 (stereo not drawn) | cell viability, MTT | 48 h | 31.5 ± 0.98 µM |
| Cc1ccc(/C=N/NC(=O)c2cc3cc(Nc4nccc(-c5cccnc5)n4)ccc3[nH]2)cc1 | cell growth or viability, MTT | 48 h | 8.25 µM |
| C/C(=N\N=C1/NC(=O)CS1)c1c(O)c2ccccc2oc1=O | cell growth or viability, MTT | 48 h | 97.7 µM |
| COc1ccc([C@@H]2COc3cc(O)ccc3C2)c(OC)c1 | cell growth or viability, MTT | 72 h | 28.6 µM |
| CC(C)Cn1cc(-c2ccnc(Nc3ccc(N4CCN(CCCCCCC(=O)NO)CC4)cc3)n2)nn1 | cell growth or viability, SRB | 72 h | 7.92 µM |
| N#Cc1cccc(-c2ccc(=O)n(Cc3cccc(-c4ncc(OCC5CCN(CCCCC(=O)Nc6ccc7c(c6)C(=O)N(C6CCC(=O)NC6=O)C7=O)CC5)cn4)c3)n2)c1 (stereo not drawn) | cell growth or viability, CCK-8 | 72 h | 2.47 µM |
| N#Cc1c(F)c(Cl)c2nc(SCc3ccc4ccccc4c3)nc(N)c2c1F | cell growth or viability, MTT | 96 h | 7.27 µM |
| Oc1ccc2c(c1)OCc1c-2oc2cc3c(cc12)OCO3 | cell growth or viability, MTT | 72 h | 13.4 µM |
| CC1(C)CC[C@]2(C(=O)O)CC[C@]3(C)C(=CC[C@@H]4[C@@]5(C)CC[C@H](O[C@@H]6OC[C@H](O[C@@H]7O[C@H](CO)[C@@H](O)[C@H](O)[C@H]7O)[C@H](O)[C@H]6O)[C@@](C)(CO)[C@@H]5CC[C@]43C)[C@@H]2C1 | NF-κB activity, inhibitor, luciferase | TNF-stimulated | 1.12 µM |
| Cc1cc(C=O)cc(C)c1Oc1cc(Nc2ccc(C#N)cn2)nc2cnccc12 | – | 48 h | 23.8 ± 2.5 µM |
| Fc1ccc2[nH]c(-c3cc4cc5c(cc4nc3Cl)OCO5)nc2c1 | cell growth or viability, MTT | 48 h | > 100 µM |
| Cc1nn(CCO)c2ncc(C(=O)c3cc(Cl)ccc3O)cc12 | cell growth or viability, MTT | – | > 50 µM |
| Cc1cc2nc(-c3cc4ccccc4nc3Cl)[nH]c2cc1C | cell growth or viability, MTT | 48 h | 7.54 µM |
| CCC1=C(CC)C2=[N+]3C1=Cc1c(CC)c(CC)c4[n]1[Ir-3]31([C]#[N+]c3ccc(OC)cc3)([C]#[N+]c3ccc(OC)cc3)[n]3c(c(CC)c(CC)c3=CC3=[N+]1C(=C4)C(CC)=C3CC)=C2.F[B-](F)(F)F | cell growth or viability, MTT | 72 h | > 100 µM |
| CCCCCCCCSc1nc(N)c2c(F)c(C#N)c(F)c(F)c2n1 | cell growth or viability, MTT | 96 h | > 100 µM |
| F[P-](F)(F)(F)(F)F.O=C(CCC(=O)[c-]1cccc1)NCCN(CC(=O)Nc1ccc(C#CCN(Cc2ccccn2)Cc2ccccn2)cc1)C(=O)CCc1cn(Cc2ccccc2)nn1.[C-]#[O+].[C-]#[O+].[C-]#[O+].[C-]#[O+].[C-]#[O+].[C-]#[O+].[Mn+].[Re+] | cell growth or viability, resazurin | 48 h | > 100 µM |

A few entries again:
| Structure (SMILES) | test | conditions | IC50 |
| --- | --- | --- | --- |
| C=C(C)[C@@H]1CC[C@]2(C(=O)OCO/N=[N+](\[O-])N3CCCC3)CC[C@]3(C)[C@H](CC[C@@H]4[C@@]5(C)CC[C@H](OC(C)=O)C(C)(C)[C@@H]5CC[C@]43C)[C@@H]12 | cell growth or viability, MTT | 72 h | 4.32 µM |
| CCOC(=O)C/C(C)=N/NC(=O)c1nc2ccccc2n(C)c1=O | cell growth or viability, MTT | 48 h | 13.8 µM |
| COc1ccc2c(c1)/C(=N/NC(N)=S)C(=O)N2CCn1cnc2c(N)ncnc21 | cell growth or viability, SRB | 72 h | 29.5 µM |
| O=C(/C=C(O)/C=C/c1cccs1)/C=C/c1cccs1 | cell growth or viability, SRB | 72 h | 66 µM |
| Clc1nc2ccccc2cc1-c1nc2cc(Br)ccc2[nH]1 | cell growth or viability, MTT | 48 h | 28.2 µM |
| C/C(=N\N=c1/[nH]c(-c2ccccc2)cs1)c1c(O)c2ccccc2oc1=O | cell growth or viability, MTT | 48 h | 47.6 µM |
| NC(=S)NNC(=O)c1cc2ccc(O)cc2oc1=O | cell growth or viability, SRB | 72 h | 5.4 µM |
| C=CCc1ccc(OC(C)=O)c(OC)c1 | MTT | 24 h | > 50 µM |
| N#Cc1cccc(-c2ccc(=O)n(Cc3cccc(-c4ncc(OCC5CCN(CC(=O)NCCOCCOCCNc6ccc7c(c6)C(=O)N(C6CCC(=O)NC6=O)C7=O)CC5)cn4)c3)n2)c1 (stereo not drawn) | cell growth or viability, CCK-8 | 72 h | 7.47 µM |
| COc1ccc2nc(Cl)c(-c3nc4cc(Br)ccc4[nH]3)cc2c1 | cell growth or viability, MTT | 48 h | 12.2 µM |
